Results collected from several papers.
Protocols differ between the studies behind these lines. Numbers after ± are the reported error.
UniProt P22607, sequence (whole entry, unmodified, looked up): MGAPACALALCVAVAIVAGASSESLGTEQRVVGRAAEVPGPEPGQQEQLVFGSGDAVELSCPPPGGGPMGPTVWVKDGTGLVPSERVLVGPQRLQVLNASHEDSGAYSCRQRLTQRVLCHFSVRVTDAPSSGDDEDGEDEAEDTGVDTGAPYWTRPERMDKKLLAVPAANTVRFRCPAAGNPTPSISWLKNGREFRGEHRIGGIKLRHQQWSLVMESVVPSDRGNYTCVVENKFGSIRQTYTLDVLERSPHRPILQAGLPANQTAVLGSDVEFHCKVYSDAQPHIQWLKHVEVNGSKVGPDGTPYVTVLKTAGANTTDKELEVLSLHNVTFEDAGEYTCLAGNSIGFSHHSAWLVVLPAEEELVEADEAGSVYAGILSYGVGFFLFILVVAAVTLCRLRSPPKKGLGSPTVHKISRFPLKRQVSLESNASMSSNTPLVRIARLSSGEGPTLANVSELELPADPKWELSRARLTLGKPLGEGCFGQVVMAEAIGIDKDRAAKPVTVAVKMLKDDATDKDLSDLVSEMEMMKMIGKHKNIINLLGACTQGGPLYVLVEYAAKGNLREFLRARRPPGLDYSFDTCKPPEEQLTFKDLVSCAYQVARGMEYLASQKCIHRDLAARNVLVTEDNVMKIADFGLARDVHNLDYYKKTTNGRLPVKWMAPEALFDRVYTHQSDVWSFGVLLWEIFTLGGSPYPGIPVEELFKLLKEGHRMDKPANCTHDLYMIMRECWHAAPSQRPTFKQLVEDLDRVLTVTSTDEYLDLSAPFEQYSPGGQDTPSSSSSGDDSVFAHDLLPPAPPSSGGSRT
UniProt P43250, sequence (whole entry, looked up): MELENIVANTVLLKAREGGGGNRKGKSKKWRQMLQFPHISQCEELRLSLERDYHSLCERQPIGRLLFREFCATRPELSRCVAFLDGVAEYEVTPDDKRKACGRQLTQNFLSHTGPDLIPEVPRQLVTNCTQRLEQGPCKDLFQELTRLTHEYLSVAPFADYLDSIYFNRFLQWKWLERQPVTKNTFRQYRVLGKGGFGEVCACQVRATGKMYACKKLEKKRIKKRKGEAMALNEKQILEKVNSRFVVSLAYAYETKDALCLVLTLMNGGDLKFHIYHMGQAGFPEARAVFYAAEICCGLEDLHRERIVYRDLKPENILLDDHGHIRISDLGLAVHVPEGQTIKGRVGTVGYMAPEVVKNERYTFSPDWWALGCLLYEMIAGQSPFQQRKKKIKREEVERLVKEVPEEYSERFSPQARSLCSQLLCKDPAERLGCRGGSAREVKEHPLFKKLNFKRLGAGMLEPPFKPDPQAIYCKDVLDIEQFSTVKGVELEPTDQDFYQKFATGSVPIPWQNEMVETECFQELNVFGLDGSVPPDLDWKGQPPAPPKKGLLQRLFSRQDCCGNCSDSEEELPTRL
UniProt P25103, sequence (whole entry, looked up): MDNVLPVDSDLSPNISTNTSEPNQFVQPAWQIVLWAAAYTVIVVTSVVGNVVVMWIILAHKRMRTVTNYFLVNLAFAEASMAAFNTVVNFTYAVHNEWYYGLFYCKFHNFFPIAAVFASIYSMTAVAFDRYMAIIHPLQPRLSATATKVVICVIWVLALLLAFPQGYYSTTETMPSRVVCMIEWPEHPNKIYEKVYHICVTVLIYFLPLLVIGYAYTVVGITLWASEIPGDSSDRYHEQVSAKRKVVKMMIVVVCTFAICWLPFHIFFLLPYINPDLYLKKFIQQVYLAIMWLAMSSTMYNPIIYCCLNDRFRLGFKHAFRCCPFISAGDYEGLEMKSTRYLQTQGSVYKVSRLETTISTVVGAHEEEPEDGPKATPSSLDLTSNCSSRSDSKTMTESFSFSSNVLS
UniProt P04629, sequence (whole entry, looked up): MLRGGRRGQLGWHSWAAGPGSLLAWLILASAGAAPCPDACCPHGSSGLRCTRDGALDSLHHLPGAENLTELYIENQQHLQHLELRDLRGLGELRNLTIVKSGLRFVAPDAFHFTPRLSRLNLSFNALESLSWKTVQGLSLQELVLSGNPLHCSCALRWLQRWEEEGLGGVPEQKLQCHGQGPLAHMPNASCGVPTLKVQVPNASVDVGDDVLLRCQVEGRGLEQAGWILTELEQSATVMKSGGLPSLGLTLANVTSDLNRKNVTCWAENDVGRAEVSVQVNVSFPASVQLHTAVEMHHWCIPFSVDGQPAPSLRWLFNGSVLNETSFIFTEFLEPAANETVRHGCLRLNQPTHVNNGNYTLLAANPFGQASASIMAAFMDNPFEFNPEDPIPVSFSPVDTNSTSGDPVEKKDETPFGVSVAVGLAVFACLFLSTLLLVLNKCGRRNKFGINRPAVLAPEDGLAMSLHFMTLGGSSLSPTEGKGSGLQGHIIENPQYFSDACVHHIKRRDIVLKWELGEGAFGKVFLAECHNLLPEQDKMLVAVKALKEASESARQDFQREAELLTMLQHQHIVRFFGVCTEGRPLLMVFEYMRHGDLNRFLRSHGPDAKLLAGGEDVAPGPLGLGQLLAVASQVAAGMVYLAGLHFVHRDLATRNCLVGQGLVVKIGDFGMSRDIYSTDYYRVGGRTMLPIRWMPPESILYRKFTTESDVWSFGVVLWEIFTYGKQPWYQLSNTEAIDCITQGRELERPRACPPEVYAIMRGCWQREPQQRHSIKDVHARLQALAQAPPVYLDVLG
UniProt Q9ULW8, sequence (whole entry, looked up): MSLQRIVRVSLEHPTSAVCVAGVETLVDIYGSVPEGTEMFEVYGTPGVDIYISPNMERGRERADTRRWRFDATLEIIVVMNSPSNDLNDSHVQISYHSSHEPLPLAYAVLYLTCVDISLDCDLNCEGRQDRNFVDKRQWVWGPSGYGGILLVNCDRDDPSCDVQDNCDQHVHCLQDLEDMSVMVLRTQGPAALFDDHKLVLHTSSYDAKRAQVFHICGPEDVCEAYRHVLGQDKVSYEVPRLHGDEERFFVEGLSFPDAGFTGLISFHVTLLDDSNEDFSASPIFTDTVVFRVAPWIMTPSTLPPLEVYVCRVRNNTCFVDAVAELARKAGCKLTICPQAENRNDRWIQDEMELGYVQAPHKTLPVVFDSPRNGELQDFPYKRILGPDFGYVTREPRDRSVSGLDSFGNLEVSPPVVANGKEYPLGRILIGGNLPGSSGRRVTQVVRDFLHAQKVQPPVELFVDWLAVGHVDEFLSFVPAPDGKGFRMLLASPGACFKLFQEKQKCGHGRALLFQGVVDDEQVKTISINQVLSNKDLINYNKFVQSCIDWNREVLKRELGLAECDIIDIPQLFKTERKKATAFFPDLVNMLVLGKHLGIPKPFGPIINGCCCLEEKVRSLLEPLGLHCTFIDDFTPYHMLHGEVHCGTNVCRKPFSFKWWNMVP
UniProt Q00534, sequence (whole entry, looked up): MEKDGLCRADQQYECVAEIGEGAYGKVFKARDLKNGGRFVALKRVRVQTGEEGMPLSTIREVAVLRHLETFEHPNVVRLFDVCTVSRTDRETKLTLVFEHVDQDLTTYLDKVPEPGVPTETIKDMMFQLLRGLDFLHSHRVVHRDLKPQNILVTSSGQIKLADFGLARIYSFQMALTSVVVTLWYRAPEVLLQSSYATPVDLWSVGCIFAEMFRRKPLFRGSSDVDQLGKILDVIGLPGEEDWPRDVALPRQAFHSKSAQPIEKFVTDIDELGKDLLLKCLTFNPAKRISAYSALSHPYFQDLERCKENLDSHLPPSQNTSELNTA
UniProt Q08881, sequence (whole entry, looked up): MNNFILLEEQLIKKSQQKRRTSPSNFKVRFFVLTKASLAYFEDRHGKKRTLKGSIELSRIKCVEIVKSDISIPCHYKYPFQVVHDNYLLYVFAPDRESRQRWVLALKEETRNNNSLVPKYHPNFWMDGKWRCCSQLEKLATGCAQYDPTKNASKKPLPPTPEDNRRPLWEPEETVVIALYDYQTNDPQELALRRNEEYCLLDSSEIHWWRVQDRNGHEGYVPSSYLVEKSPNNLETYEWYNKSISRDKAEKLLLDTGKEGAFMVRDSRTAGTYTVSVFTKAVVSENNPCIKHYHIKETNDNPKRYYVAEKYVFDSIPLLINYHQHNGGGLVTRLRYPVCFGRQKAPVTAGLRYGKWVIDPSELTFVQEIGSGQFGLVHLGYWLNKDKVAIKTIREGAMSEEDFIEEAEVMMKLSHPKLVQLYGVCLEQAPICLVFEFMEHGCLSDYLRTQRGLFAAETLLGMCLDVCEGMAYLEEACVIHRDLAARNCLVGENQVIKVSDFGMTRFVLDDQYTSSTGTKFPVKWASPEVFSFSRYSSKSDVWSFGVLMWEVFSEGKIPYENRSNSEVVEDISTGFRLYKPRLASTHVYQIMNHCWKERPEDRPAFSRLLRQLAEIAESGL
UniProt Q16620, sequence (whole entry, looked up): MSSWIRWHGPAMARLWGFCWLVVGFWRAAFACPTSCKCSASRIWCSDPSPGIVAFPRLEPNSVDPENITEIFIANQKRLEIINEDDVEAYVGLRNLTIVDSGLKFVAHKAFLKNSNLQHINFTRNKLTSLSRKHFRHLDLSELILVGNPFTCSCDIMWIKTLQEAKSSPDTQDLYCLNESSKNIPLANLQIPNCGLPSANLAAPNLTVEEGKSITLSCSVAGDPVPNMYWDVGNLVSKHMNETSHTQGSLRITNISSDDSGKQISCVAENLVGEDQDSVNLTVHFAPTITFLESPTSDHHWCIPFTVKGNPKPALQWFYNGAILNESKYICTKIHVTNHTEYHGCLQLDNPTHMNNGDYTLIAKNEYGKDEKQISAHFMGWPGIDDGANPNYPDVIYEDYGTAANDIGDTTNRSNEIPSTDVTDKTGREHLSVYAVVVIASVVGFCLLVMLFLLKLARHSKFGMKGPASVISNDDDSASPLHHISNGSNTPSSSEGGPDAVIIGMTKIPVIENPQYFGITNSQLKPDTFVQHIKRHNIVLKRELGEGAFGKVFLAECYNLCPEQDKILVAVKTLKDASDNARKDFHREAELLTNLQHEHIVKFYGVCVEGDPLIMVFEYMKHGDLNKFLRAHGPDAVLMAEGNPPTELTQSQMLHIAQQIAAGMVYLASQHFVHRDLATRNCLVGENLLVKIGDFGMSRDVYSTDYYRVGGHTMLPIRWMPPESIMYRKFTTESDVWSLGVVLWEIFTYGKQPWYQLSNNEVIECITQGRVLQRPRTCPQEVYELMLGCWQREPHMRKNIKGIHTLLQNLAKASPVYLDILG

SMILES = CC(=O)NC[C@@H]1[C@@H](O)C[C@H]2[C@H](O)C[C@@H](CO)N12; tested on = Spodoptera litura β-N-acetylglucosaminidase; test system = crude enzyme; setting = 0.107 µM, run 1, with: p-nitrophenyl GlcNAc; quantity = inhibition; value = 16.3%
SMILES = O=C1NC2(CC2)COc2ncc(F)cc2[C@H]2COCCN2c2ccn3ncc1c3n2; test system = Sprague-Dawley rat, male, brain; setting = oral, 2.5 mg/kg/day, 4 weeks dosing, end of recovery; quantity = organ-to-body weight ratio; value = 0.426 ± 0.037%
SMILES = CS(C)(=O)=Nc1ccc(-c2ccc(-c3nc4cc(O[C@@H]5CO[C@H]6[C@@H]5OC[C@H]6O)[nH]c4cc3F)cc2)cc1; tested on = GRK6 (Homo sapiens, UniProt P43250); assay = enzyme activity, inhibitor; setting = 10 µM; quantity = inhibition; value = 0%
SMILES = CN(/N=C/c1ccccc1C(=O)O)c1nc(-c2ccccc2Cl)cs1; tested on = NTRK1 (Homo sapiens, UniProt P04629); assay = enzyme activity, inhibitor; setting = 1 µM; quantity = inhibition; value = -43.1%
SMILES = O=C(CN1CN(c2ccccc2)C2(CCN(C(=O)c3cnc4[nH]ncc4c3)CC2)C1=O)NCC(F)(F)F; tested on = ITK (Homo sapiens, UniProt Q08881); assay = inhibitor; setting = concentration not given; quantity = inhibition; value = < 50%
SMILES = COc1ccc(F)cc1S(=O)(=O)Nc1cnc2c(c1)C(=O)NCCO2; tested on = NMDA receptor Polyamine site; assay = radioligand binding; setting = 10 µM; quantity = inhibition; value = 13%
SMILES = N[C@H](C(=O)N1CCCC1)C1CCN(c2nccc3c(-c4ncc(Cl)cc4Cl)cccc23)CC1; tested on = PADI3 (Homo sapiens, UniProt Q9ULW8); assay = enzyme activity, GDH-coupled; setting = 0.2458 µM, with: 0.25 mM Ca2+; quantity = inhibition; value = 68.8%
SMILES = CN(C)[C@H]1C[C@@]23CC[C@@]4(O2)C(=CC[C@]2(C)[C@@H](c5ccc6ccncc6c5)CC[C@H]24)C=C3[C@@H](O)[C@@H]1O; tested on = CDK6 (Homo sapiens, UniProt Q00534); assay = ATP probe labelling, inhibitor, KiNativ profiling; setting = 0.1 µM; quantity = inhibition; value = 6.2%
SMILES = CC(C)[C@H]1NC(=O)C[C@H]2/C=C/CCSSC[C@@H](NC1=O)C(=O)N[C@H](Cc1cccc3ccccc13)C(=O)NCC(=O)O2; tested on = FGFR3 (Homo sapiens, UniProt P22607, K650M); assay = enzyme activity, inhibitor; setting = 10 µM; quantity = inhibition; value = 9.6%
SMILES = O=C(O)c1ccccc1/C=N/Nc1nc(-c2ccccc2Cl)cs1; tested on = NTRK2 (Homo sapiens, UniProt Q16620); assay = enzyme activity, inhibitor; setting = 1 µM; quantity = inhibition; value = -8.42%
SMILES = C[C@H](NCc1ccc(-c2ccc(C(F)(F)F)cc2)cc1)C(N)=O; tested on = TACR1 (Homo sapiens, UniProt P25103); assay = binding, radioligand binding; test system = biochemical; setting = 1 µM, with: [3H]substance P 0.80 nM; quantity = inhibition; value = -11%
